Experimental data collected from several papers.
A part holds a random share of what one study measured.

Study 1
Target: PABPC1L2, full length, GST fusion (mouse, UniProt A0ABA7IW68)
Technique: RNAcompete
Form: RNA
Matrix: in vitro
Tested at: 20 nM
Notes: 7-mer, probes averaged, single round
Relative to: mean of 7-mers
Direction: higher = stronger binding
Quantity: 7-mer Z-score
Target sequence (chain): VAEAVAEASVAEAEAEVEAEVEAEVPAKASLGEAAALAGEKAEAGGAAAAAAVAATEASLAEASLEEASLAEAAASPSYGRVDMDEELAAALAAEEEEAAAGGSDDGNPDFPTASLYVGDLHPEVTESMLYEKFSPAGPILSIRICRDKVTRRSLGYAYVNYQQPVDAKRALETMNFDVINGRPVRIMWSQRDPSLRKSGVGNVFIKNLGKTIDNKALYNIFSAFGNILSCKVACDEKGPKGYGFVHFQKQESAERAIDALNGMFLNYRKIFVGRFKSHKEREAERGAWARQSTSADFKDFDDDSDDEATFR
UACUACU: -0.204
CUCUGGA: -0.146
GACCCAU: -0.161
CUCAGAA: 0.119
CGUUCCC: -0.49
CCAAAGA: 0.506
GGUUGAC: 0.166
AACGACU: 0.149
ACUUCCA: 0.017
UCAGUAU: -0.177
UGCUAUC: -0.333
ACACAUG: 0.00979
AGGCAUC: -0.0609
ACUGGUG: 0.0134
CGUCAGC: -0.358

Study 2
Target: Histone acetyltransferase KAT6A, winged helix 2, GST fusion (KAT6A, Homo sapiens, UniProt Q92794, residues 85-181)
Technique: protein binding microarray
Form: double-stranded DNA, one strand shown
Matrix: in vitro
Tested at: not given
Notes: 8-mer, flanks averaged, mean of 2 arrays, mostly near background
Relative to: not given
Direction: higher = stronger binding
Quantity: E-score
Target sequence (chain): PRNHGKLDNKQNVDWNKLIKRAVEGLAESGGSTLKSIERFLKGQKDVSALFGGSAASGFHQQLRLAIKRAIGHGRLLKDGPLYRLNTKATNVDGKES
AATCAGAC: -0.00071
GACACCGC: 0.156
AATACACA: -0.0363
AATCAGCA: 0.196
ACGGCGAA: 0.204
AGCCACGG: -0.0844
GAGAGCAA: 0.232
ACGTTGCT: 0.0989
GCGTCGCC: 0.238
AATTATCG: 0.185
AGGCCTCA: -0.161
CCGAACCG: 0.137

Study 3
Target: RNA binding protein fox-1 homolog 2, RRM domain, GST-SBP tag (RBFOX2, Homo sapiens, UniProt O43251-10, residues 100-194)
Technique: RNA Bind-n-Seq
Form: RNA
Matrix: in vitro
Tested at: 365 nM
Notes: natural RNA segment, single round, ends assumed
Relative to: no-protein control
Direction: higher = stronger binding
Quantity: RBNS enrichment (R)
All sequences stand within: GGGAGUUCUACAGUCCGACGAUC … UGGAAUUCUCGGGUGCCAA
Residues (chain): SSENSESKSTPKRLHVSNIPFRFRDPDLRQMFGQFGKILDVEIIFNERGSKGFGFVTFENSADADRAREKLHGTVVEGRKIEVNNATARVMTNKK
AUCCCAGCACCAGUCUGCUUGAGCCCUGCACUCACUGCUCGGGAAUGGCAAGCUCCCAGAUUCCUUCCAGGAAAGUCAACUGUGUCUUAAGGCUUUGCGGCCUGCGCAGA: 0.64
CUCUGCAGACCCAGCACCCUCGGAUGCCCCUCCAGCGGCUCGACAACGACGUGGACCUGCGUGGGGACCAGCCCUCCCUGGGCAGCUUCACCUACUCCACCUCUGCGCCU: 0.233
AUGUUGAAAAUUGUACUGAAAUAAAGUAGAAAAUUGUUACGUACCAUAUUUGUAACUAUCAACUUUUAAAACUUUUAACGUUUUUGUUACAUGCAUUGUAAUUCUGCUUU: 0.394
UUUCUUGUACAUUUGUGUCUCCCUUCCCAACUAGACUGUAAGUGCCUUGCGGUCAGGGACUGAAUCUUGCCCGUUUAUGUAUGCUCCAUGUCUAGCCCAUCAUCCUGCUU: 2.57
CUGGGUAAGGAGCAGUUGCUGGGUCAUUCCUUGGGCCCCGACCUGCCCGGGGAGUAGCCCUGGGGGAGAGAGGGCAGUGUUGCCUAUCCCAGAGGUCCCAGCAGUCACAC: 0.451
AAAAUGAUGCCCACAGUCUUGGGAAAAAUACCUGCUGGGAAGGAUGGCAUCUUUUCUGCGCGGUGGGGCUCCCGGAGAACUGGGCAUGCGCAUUGUGCCGUGGGGCUUAG: 0.425
UACAGUUUUGAUUUAUGUCACAUAAUGUGUUUCUUUUAUAAAGAAAAGUCGUUGCUUUUUAACUUUAUUAUAAGUAAGUUUUUUUUCUGCACCUUUGGCCCCGGUUGCUG: 0.668
CCGCCCCAGUGCUGAUGGAGAUGCCACUUUCGUGUGACUGCGAACAUUAAAGCACAAAAAAAUCCAACCUGGAGUUGUGUGAUUUUGAUACCAAAGUAAGUUCACUUUUC: 0.359
UCAAUUUUUUUUUAACAAUACAUUUUUGUGGUCAGUUCCAACAGCACUGUCCGUACUUUUAAAACUGGAAUGACCUCCUUCAGAUAUCGUGCCUCUUAGUGCCAAACCCA: 0.543

Further values, each from its own experiment
PhoQ, residues 284 288 289 292 302 303 GANMMA
fold induction (PhoP, residues 12 14 15 18 19 NMSSL (Escherichia coli, UniProt P23836); Sort-seq, item: YFP reporter; E. coli; PhoQ-PhoP variant library, added: 10 µM Mg2+; relative to: high Mg2+ state, higher = stronger signaling): 20.5

A few entries again (study 3):
AUCCCAGCACCAGUCUGCUUGAGCCCUGCACUCACUGCUCGGGAAUGGCAAGCUCCCAGAUUCCUUCCAGGAAAGUCAACUGUGUCUUAAGGCUUUGCGGCCUGCGCAGA: 0.64
CUCUGCAGACCCAGCACCCUCGGAUGCCCCUCCAGCGGCUCGACAACGACGUGGACCUGCGUGGGGACCAGCCCUCCCUGGGCAGCUUCACCUACUCCACCUCUGCGCCU: 0.233
AUGUUGAAAAUUGUACUGAAAUAAAGUAGAAAAUUGUUACGUACCAUAUUUGUAACUAUCAACUUUUAAAACUUUUAACGUUUUUGUUACAUGCAUUGUAAUUCUGCUUU: 0.394
UUUCUUGUACAUUUGUGUCUCCCUUCCCAACUAGACUGUAAGUGCCUUGCGGUCAGGGACUGAAUCUUGCCCGUUUAUGUAUGCUCCAUGUCUAGCCCAUCAUCCUGCUU: 2.57
CUGGGUAAGGAGCAGUUGCUGGGUCAUUCCUUGGGCCCCGACCUGCCCGGGGAGUAGCCCUGGGGGAGAGAGGGCAGUGUUGCCUAUCCCAGAGGUCCCAGCAGUCACAC: 0.451
